Published values pooled from the literature.
Parts stem from different laboratories: compare values within a part only. Changes are numbered by the printed parent chain.

Set 1 — method: DHFR PCA, dose-response; sample: yeast; setting: Hill fit, mean, not affinity; with: (+)-ABA, dose series; reading: lower = more sensitive
Target: ABI1, truncated, D143A, DHFR fusion (Arabidopsis thaliana, UniProt P49597)
Starting sequence: PYL1, truncated, DHFR fusion (Arabidopsis thaliana, UniProt Q8VZS8); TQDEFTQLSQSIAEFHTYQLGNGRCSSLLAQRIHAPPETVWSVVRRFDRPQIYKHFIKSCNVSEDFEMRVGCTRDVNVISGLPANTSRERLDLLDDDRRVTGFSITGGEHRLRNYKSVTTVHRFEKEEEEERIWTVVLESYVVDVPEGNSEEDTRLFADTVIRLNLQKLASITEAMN
Variant	ABA EC50 [µM]
L112T	952
L112C	91.8
L29W	109
F66R	7.12
I52F	4.38
P37M	31.8
L156G	11.5
R123S	2.19
L112I	135
D159S	11.3
S11Y	2.87
T1E	1.19
W134I	1.46
H55G	0.585
L94M	4.85
E67F	6.57
E147W	6.19
I52P	213
T6W	5.79

Set 2 — method: RNA Bind-n-Seq; form: RNA; sample: in vitro; tested at: not given; relative to: input RNA pool; reading: higher = stronger binding
Target: RING finger protein unkempt homolog, zinc fingers 1-6, GST-SBP tag (UNK, Homo sapiens, UniProt Q9C0B0, residues 30-357)
Setting: RNA with constant flanks, human and mouse sites, ends assumed
All sequences stand within: GGGAGUUCUACAGUCCGACGAUC … CAACAGAGGAUUGAGCAUCA
Construct (chain): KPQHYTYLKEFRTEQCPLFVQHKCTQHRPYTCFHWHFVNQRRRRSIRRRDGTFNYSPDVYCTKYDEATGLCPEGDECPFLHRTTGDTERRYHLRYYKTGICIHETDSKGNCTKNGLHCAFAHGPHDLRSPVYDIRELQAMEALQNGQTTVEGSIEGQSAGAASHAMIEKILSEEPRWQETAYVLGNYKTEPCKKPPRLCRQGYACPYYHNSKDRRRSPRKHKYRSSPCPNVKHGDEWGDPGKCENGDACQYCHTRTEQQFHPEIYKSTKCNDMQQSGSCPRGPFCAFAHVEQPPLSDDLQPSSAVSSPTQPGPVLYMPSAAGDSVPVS
Strand	bound/input enrichment
UUUCCGAUGACCAUGGAUGAAAAAUAUGUAAACAGCAUUUGGGACCUUCUGAAAAAUGCAAUUCAAGAAAUCCAGCGUAAGAAUAACAGUGGUCUUAGUUUUGAGGAGCUCUAUAGAAAU	1.11 ratio
CGAAGACGACGAGAAGAUGACAGGAUCUCAAGACCUCAUCCUUCAACAGCUGAAUCAAAGGCUCCAACACCAAAGUUUGACUUAUUAGCCUCAAAUUUUCCACCUUUACCUGGAAGUUCA	0.172 ratio
GGGCUGUACAGGUCACCCUCUCCCACGGUGCCCGCCGACCCUGGGGUGUCUGUCUCUCUGCGGGUAGGAGGGCGCCAUGGGCGCGCCGCCGCCCGCUCCCCGCAGCCGCCUUUGCGGAGC	0.0634 ratio
AAGAAUGAAGUGGACCUGGUUGUUCACUCCUUGAAGGACCUGCCCACUGUGCUUCCUCCUGGCUUCACCAUCGGAGCCAUCUGCAAGCGGGAAAACCCUCAUGAUGCUGUUGUCUUUCAC	0.058 ratio
AGCCGCCCCUUUGCCAAGGUCACUGUCUGCUUCCCUCCAGACCCUGCAGGCCCAGCACCUGCAUGGAAGCCAGCUGGGCUCCCUCCUCCUGCCUUCCGCCGCUCUGAGCCUUUCCUAGCA	0.297 ratio
CACAGGGCAAUGGGGAGCUUGCAGCAAGCCCUUGUGUGCUUUGAAAAGAGGCUCGUGGUUGCUCAUGAACUUGGAGAGGCCUUCAAUAAAGCCCAGGCCUAUGGAGAGCUGGGAAGUCUG	0.139 ratio
CGGAGGUAAACCCUGCACGCACAUCGUGCUUCGGCGUGUCAGGUAUUUGAAUUUAGAGUUUAGUUUCCCAUAACAUUUUCUACAAGAAGAAUCUUGGUAGUGUCUCAAAGACAUCACUGA	0.921 ratio
UCUGCCUGUAAGCAAGUCGUAAGUGUGGAAACUACAAGAGACAUUGAAUGGGCUACCUAUACCUGCACUUUGGGAUUCCAUGUUUUUGGAGUGUGGCCAGAAGGCUCGGACGGAACCGAC	0.229 ratio
UUCUAAACCUUCCUCUGACCCCCCUUGUAUCAUUGAGAAACUGUGUUCCUUACAUGAUGGCCUAGUUUUGGAAGCAAAGGGGAUAAAGGAACAUUUCUGGAAACCCUAUAUUAGGAAACU	0.486 ratio
AUCCCUGAGAAUGCUAUAUUUGGUCCCUGUGUCCUGAGCCAUACUUCCCUAUAUGACAGCAUAGCUUUCAUAGCUCUCAAGUCUACUGACAAGAGAACAGUACCGUAUAUCUUUCGGGUA	0.0973 ratio
GUCAUAGUUUUUUUUAUGACUACUUCUAGUGUAUAUUCUAAUUUCUUUUCUAGGCCUGAAUGUAUCUUUAUUUUCAUGUUAUAGGACAAUAUUAAGGCAUUUUAAAGGUCAUCAUCCUUU	44.2 ratio

Set 3 — target: CCND1, cyclin fold, Cln2 fusion (human); method: yeast growth competition, sequencing; sample: yeast; setting: strong parent motif; relative to: not given; reading: higher = stronger binding
Starting sequence: RBL2 docking peptide (human); STTRRRLFVENDS; partner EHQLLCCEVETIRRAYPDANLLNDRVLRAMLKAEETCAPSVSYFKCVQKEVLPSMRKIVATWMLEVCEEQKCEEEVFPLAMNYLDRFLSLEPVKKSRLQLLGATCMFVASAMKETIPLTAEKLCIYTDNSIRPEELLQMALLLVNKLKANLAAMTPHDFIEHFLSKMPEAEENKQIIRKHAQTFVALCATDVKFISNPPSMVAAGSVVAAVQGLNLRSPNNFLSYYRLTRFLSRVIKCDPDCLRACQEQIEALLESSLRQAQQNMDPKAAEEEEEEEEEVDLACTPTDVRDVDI
Variant	normalised enrichment score
STTRRILFVENDS [R6I]	0.692
STTRRRLFVENPS [D12P]	0.612
STTRRRLFPENDS [V9P]	0.651
STTRRRLFVENES [D12E]	0.258
STTRRRLFVENVS [D12V]	0.361
STTRRRLFAENDS [V9A]	1.39
SDTRRRLFVENDS [T2D]	1.12
STTRRTLFVENDS [R6T]	0.472
STTRDRLFVENDS [R5D]	0.172
STTRRRLFVENDF [S13F]	1.2
STTRRRLFVENDM [S13M]	0.0333
STTRRRLFVSNDS [E10S]	0.569
STTRRSLFVENDS [R6S]	1.21
STTRRRLFSENDS [V9S]	1.61
STTRRRLFVERDS [N11R]	0.391
STTRRRLFMENDS [V9M]	1.56
STTRRRLEVENDS [F8E]	0.232
SITRRRLFVENDS [T2I]	0.431
STTRRDLFVENDS [R6D]	0.829
STTRRRLPVENDS [F8P]	1.03
STTRRRLSVENDS [F8S]	0.758
STTRRRLFVENKS [D12K]	0.406
STTRRRLFVENDQ [S13Q]	0.783
STTRRRGFVENDS [L7G]	-0.706
STTRRRLFVEQDS [N11Q]	0.862

Set 4 — method: universal PBM; form: double-stranded DNA, one strand shown; sample: in vitro; tested at: 600 nM; reading: higher = stronger binding
Target: Sal-like protein 4, full length isoform A (SALL4, Homo sapiens, UniProt Q9UJQ4, residues 1-1053)
Chain of UniProt Q9UJQ4 (whole entry, looked up): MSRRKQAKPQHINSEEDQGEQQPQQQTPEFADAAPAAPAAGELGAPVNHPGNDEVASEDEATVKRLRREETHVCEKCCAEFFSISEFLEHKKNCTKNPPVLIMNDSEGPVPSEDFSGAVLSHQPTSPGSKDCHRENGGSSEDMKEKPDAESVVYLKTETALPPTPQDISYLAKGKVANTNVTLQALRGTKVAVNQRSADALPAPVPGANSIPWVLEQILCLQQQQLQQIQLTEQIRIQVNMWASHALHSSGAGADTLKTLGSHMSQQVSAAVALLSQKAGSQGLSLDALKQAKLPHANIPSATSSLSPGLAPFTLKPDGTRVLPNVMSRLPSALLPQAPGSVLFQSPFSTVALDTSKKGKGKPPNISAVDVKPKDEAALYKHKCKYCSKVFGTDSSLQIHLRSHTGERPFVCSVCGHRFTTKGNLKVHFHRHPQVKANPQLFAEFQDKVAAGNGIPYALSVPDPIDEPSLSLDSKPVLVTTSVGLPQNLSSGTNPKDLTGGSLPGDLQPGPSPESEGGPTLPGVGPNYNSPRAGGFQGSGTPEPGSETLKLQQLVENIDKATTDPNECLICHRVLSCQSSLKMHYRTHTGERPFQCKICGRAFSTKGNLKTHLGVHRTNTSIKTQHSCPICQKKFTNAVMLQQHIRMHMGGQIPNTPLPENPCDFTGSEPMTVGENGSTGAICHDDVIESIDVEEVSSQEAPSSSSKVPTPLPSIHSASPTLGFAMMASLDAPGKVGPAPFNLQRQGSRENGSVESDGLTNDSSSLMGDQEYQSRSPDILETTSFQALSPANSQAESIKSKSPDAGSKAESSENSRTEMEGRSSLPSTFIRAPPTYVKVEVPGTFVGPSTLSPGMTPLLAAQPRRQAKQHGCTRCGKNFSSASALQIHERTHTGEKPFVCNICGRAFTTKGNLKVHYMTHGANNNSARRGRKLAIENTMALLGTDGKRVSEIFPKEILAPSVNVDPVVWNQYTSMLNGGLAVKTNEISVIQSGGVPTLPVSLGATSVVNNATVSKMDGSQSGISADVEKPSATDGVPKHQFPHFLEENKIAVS
Setting: 8-mer, flanks averaged, mean of replicates
Strand	E-score
AGCCCACC	-0.295
CAACCACA	0.0313
AGTGTAGA	-0.00462
AGTAAGAA	0.203
ACCTATTC	0.0609
TAGACCCA	-0.0994
ATAACTTC	0.292
CACATAGG	-0.012
ACGTTAAT	0.217
TAACTAAA	0.207
AAACACTG	0.0822
AATCCTTC	0.0635
GTACGTAA	0.197
CGTTTTGC	0.0234
CGGCCGCA	-0.256
ACTCGATA	0.0835
ACCTGCAG	-0.199
CAAAAAAA	0.295
CCAATTTA	0.24
GCGGCGGA	-0.348
AAAGCCTG	-0.0221
CATCTGTA	0.164
AATGGTAG	0.208
ATGGTTTA	0.226
AACGTTCC	-0.028

Set 5 — target: BATF, bZIP domain (human); method: DHFR protein complementation; sample: yeast; relative to: wild-type JUN-FOS pair; reading: higher = stronger binding
Setting: single substitutions, most at no-binding floor
Starting sequence: JUN, bZIP domain (human); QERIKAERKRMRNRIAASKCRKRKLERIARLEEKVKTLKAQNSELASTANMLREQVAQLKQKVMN; partner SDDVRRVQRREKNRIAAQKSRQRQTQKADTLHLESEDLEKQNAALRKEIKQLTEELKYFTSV
Variant	binding fitness
L31R	-0.324 natural log
L52R	-1.1 natural log
A29F	-0.113 natural log
A57K	-0.00706 natural log
E44H	-0.0688 natural log
L31A	-0.00876 natural log
N42K	-0.201 natural log
I28R	0.017 natural log
K39P	-1.19 natural log
A49K	-0.17 natural log
E32Q	-0.0916 natural log
A57H	-0.0524 natural log
Q41S	-1.24 natural log
K36R	0.0539 natural log
I28D	-0.00677 natural log
V56M	-0.298 natural log
S47A	0.0789 natural log
E54C	-0.173 natural log
Q58P	-0.512 natural log
S43P	-1.05 natural log
K36Q	-0.0663 natural log
L52G	-1.15 natural log
A49N	-0.976 natural log
Q55K	0.0716 natural log
E32I	-0.237 natural log

Set 6 — method: protein binding microarray; form: double-stranded DNA, one strand shown; sample: in vitro; tested at: not given; relative to: not given; reading: higher = stronger binding
Target: Histone acetyltransferase KAT6A, winged helix 2, GST fusion (KAT6A, Homo sapiens, UniProt Q92794, residues 85-181)
Setting: 8-mer, flanks averaged, mean of 2 arrays, mostly near background
Target sequence (chain): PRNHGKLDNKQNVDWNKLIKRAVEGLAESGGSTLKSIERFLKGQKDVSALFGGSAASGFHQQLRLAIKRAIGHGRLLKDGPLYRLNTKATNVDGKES
Strand	E-score
CTTGGGGA	0.0221
ATACGAGA	-0.113
CTTCCCGC	0.132
AGTCAGCC	-0.0413
AACGACAT	0.0925
CCGTCACC	-0.00754
TAGGATGA	-0.0268
CGCGCTAA	0.0545
ACGCGGCA	0.0143
ATATAAAA	0.121
CGAGGACA	-0.127
AGGGATAT	-0.0577
CAAAAGTC	0.0245
AATGTGCT	-0.0604
ATTCGAAC	0.0852
TCCAGTAA	-0.177
CGTTAAAC	-0.198
AGTCCCTC	0.0636
ACGTCCCG	0.00396
AAGTTCAA	-0.0922
AGACCTTC	-0.131
GTCCCAGA	-0.00613
AGTCGTCA	-0.19
AAACGTTG	-0.205
TGCATCAA	0.0965

Some of these lines once more (set 5):
Variant	binding fitness
L52R	-1.1 natural log
A29F	-0.113 natural log
A57K	-0.00706 natural log
E44H	-0.0688 natural log
L31A	-0.00876 natural log
N42K	-0.201 natural log
I28R	0.017 natural log
K39P	-1.19 natural log
A49K	-0.17 natural log
E32Q	-0.0916 natural log
A57H	-0.0524 natural log
Q41S	-1.24 natural log
K36R	0.0539 natural log
I28D	-0.00677 natural log
V56M	-0.298 natural log
S47A	0.0789 natural log
E54C	-0.173 natural log
Q58P	-0.512 natural log
